Results from different studies.
A part holds a random share of what one study measured. Positions count from the first letter of the parent shown.

Block 1
Target: Histone acetyltransferase KAT6A, winged helix 1, GST fusion (KAT6A, Homo sapiens, UniProt Q92794, residues 1-85)
Technique: protein binding microarray
Molecule type: double-stranded DNA, one strand shown
Sample: in vitro
Concentration: not given
Notes: 8-mer, flanks averaged, mean of 2 arrays, mostly near background
Baseline: not given
Reading: higher = stronger binding
Measurement: E-score
Target sequence (chain): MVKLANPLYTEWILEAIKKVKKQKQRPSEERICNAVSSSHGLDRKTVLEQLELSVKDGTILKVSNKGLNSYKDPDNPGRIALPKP
Oligonucleotide = TACTCCTA; result = -0.128
Oligonucleotide = GAGAACGC; result = 0.0157
Oligonucleotide = ACCATCCT; result = -0.105
Oligonucleotide = GCGGGATA; result = 0.364
Oligonucleotide = CTATAATA; result = -0.0741
Oligonucleotide = ACGGCCGT; result = 0.425
Oligonucleotide = AACGAAGC; result = -0.013
Oligonucleotide = CACGTACA; result = -0.254
Oligonucleotide = CGCACTGA; result = 0.154
Oligonucleotide = GCCCCAAA; result = -0.0334
Oligonucleotide = AGTTCGGG; result = -0.058
Oligonucleotide = TGCTGACA; result = -0.228
Oligonucleotide = AAACGCAC; result = 0.1
Oligonucleotide = CGGCACTA; result = 0.276
Oligonucleotide = AAAGTTTC; result = -0.133

Block 2
Target: CCND1, cyclin fold, Cln2 fusion (human)
Technique: yeast growth competition, sequencing
Sample: yeast
Notes: weak parent motif
Baseline: not given
Reading: higher = stronger binding
Measurement: normalised enrichment score
Starting sequence: WEE1 docking peptide (human); HKTFRKLRLFDTP
Variant = HKTFRKLRLFKTP [D11K]; result = 0.539
Variant = HKTFRKLILFDTP [R8I]; result = 0.988
Variant = HKAFRKLRLFDTP [T3A]; result = 0.194
Variant = HKTFRKLRLMDTP [F10M]; result = -0.507
Variant = HKTFRKLRRFDTP [L9R]; result = -0.627
Variant = HKTFRGLRLFDTP [K6G]; result = 0.255
Variant = HKTFRELRLFDTP [K6E]; result = 0.0689
Variant = HKTFRKPRLFDTP [L7P]; result = 0.403
Variant = HKTFRKLGLFDTP [R8G]; result = 0.141
Variant = HKTFRKLRLCDTP [F10C]; result = -0.196
Variant = HKTFTKLRLFDTP [R5T]; result = 0.413
Variant = HKPFRKLRLFDTP [T3P]; result = 0.447
Variant = HKQFRKLRLFDTP [T3Q]; result = -0.0995
Variant = HKTFRKLRLFDKP [T12K]; result = 0.0833
Variant = HKTFRKCRLFDTP [L7C]; result = 0.482
Variant = HKTFRKRRLFDTP [L7R]; result = -1.02
Variant = HKTFRKLRAFDTP [L9A]; result = 0.0305
Variant = HKTFRKLRIFDTP [L9I]; result = -0.305

Block 3
Target: Cyclic AMP-responsive element-binding protein 1 (CREB1, Homo sapiens, UniProt P16220, residues 1-327, full length assumed)
Chain of UniProt P16220 (whole entry, looked up): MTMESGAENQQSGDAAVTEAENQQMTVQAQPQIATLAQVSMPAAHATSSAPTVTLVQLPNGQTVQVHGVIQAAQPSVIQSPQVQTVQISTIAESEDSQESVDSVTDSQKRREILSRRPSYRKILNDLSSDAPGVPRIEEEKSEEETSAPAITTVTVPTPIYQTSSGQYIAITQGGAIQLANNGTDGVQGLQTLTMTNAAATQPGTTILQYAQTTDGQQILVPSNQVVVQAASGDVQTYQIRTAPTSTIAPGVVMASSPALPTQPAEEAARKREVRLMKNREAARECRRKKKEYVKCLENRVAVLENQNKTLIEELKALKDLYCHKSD
Technique: protein-binding microarray
Molecule type: double-stranded DNA, one strand shown
Sample: in vitro
Concentration: not given
Notes: k-mer, scored over probes, only values ≥0.25
Reading: higher = stronger binding
Measurement: E-score
Oligonucleotide = CTATGAC; result = 0.352
Oligonucleotide = CAATATG; result = 0.28
Oligonucleotide = GTCGTCA; result = 0.34
Oligonucleotide = TGACGCA; result = 0.468
Oligonucleotide = AATATGG; result = 0.256
Oligonucleotide = CAATATA; result = 0.259
Oligonucleotide = ATATGAC; result = 0.306
Oligonucleotide = ATACGAT; result = 0.266
Oligonucleotide = ACGTCAA; result = 0.377
Oligonucleotide = ATGTGAC; result = 0.272
Oligonucleotide = GACGTTA; result = 0.329
Oligonucleotide = ATCATTA; result = 0.312
Oligonucleotide = GCGTGAC; result = 0.283
Oligonucleotide = GTATCAC; result = 0.262
Oligonucleotide = ATTTAAC; result = 0.262
Oligonucleotide = ATTACAG; result = 0.254
Oligonucleotide = ATGACGA; result = 0.475
Oligonucleotide = ATGATAA; result = 0.274
Oligonucleotide = GTAAACA; result = 0.291
Oligonucleotide = TACGTGA; result = 0.269
Oligonucleotide = CCTGACG; result = 0.268
Oligonucleotide = ATGTAAT; result = 0.261

Further values, each from its own experiment
Substance = PhoQ, residues 284 288 289 292 302 303 SASVAL; target = PhoP, residues 12 14 15 18 19 NQAHL (Escherichia coli, UniProt P23836); test = Sort-seq, measured: YFP reporter; system = E. coli; conditions = PhoQ-PhoP variant library, added: 10 µM Mg2+; scale = baseline: high Mg2+ state, higher = stronger signaling; measurement = fold induction; result = 0.552

For quick reference, copied from above (block 2):
Variant = HKTFRKPRLFDTP [L7P]; result = 0.403
Variant = HKTFRKLGLFDTP [R8G]; result = 0.141
Variant = HKTFRKLRLCDTP [F10C]; result = -0.196
Variant = HKTFTKLRLFDTP [R5T]; result = 0.413
Variant = HKPFRKLRLFDTP [T3P]; result = 0.447
Variant = HKQFRKLRLFDTP [T3Q]; result = -0.0995
Variant = HKTFRKLRLFDKP [T12K]; result = 0.0833
Variant = HKTFRKCRLFDTP [L7C]; result = 0.482
